Measurements collected from several papers.
A part holds a random share of what one study measured.

Study 1
Target: RING finger protein unkempt homolog, zinc fingers 1-6, GST-SBP tag (UNK, Homo sapiens, UniProt Q9C0B0, residues 30-357)
Method: RNA Bind-n-Seq
Molecule type: RNA
Medium: in vitro
Concentration: not given
Setting: RNA with constant flanks, ends assumed
Relative to: input RNA pool
Reading: higher = stronger binding
Constant ends, left off below: GGGAGUUCUACAGUCCGACGAUC … CAACAGAGGAUUGAGCAUCA
Residues (chain): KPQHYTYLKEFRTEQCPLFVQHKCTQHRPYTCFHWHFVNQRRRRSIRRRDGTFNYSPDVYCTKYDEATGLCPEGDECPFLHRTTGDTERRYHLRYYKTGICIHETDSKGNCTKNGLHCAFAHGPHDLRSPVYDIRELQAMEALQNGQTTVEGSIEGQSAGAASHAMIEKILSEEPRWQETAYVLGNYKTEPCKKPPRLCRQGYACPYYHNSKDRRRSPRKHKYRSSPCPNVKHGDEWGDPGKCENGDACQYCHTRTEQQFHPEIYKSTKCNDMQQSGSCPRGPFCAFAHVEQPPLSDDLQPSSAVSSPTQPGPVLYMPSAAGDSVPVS
With `AAAAGCCGGGGAGGCUUUUUUAAUUCAUUUGAAUGUAUGAUUCUCGGACACUCCUUUUGACUCCGGGAUUUGCUUGAAUGCAUAAAGUCAAGAAGCAGAUAGGCUGGCAGGUUUCCAGGC` the bound/input enrichment was 0.276 ratio.
`AGAAAAUUGUGCUACUGUGUGUGCGUGUGCGUGCGUGUGUGUAGUGCUAGGAGUCCACAGCCGGUCUCUGUCAAGCCGAUGUCGUGAUGAGGGCUUUUCUGAUACUGACCCAGAAGCCAC` gave a bound/input enrichment of 0.143 ratio.
With `AGCACAACACCAGCUAAGCUCAGGAACCCUUGCACAAGUGAACAGAACUGCACCAGCCCAUUCCGCUACAAAAAUGUGCUCAGUCUUACUAAUAAAGGAGAAGUAUUUAAUGAACUUGUU` the bound/input enrichment was 0.416 ratio.
The bound/input enrichment of `UACGUGUGCCAGAGACUGGGUGUCAGCCAUAUCAUCACCGAGCCCAAAGAAGAGGCCAUCCGCACAAAUGAAGUCAUAAACCAGUUACUGCACCAUGUUGGCGCCAUGUGCAUUCACCAG` is reported as 0.149 ratio.
The bound/input enrichment of `CCUGCUCAGAUCACCAUGAAAGUAAUCCAAGGCUUGUACAGUGGGGUCACCACAGUGGAACCCGAUACUUUGGCUGCUGAAACAGCUGCAACCUUGACUACUAAGCACCCUGACUAUGCU` is reported as 0.251 ratio.
For `GACAGUGAAGGCCCACUGUGUGAAUUGCUUUUUUUCUUCCUGACUGCAAUCUUCCAGGCAACCGCUGAAGAAGAAGAGGAAGUAGCCAAAGAGCAACUAACUGAUGCUGACACCAAAGAU`, the bound/input enrichment was 0.0802 ratio.
`UCUGGCUACUGAUGCAGCACAAGAGACGUGUUUUUUUUUUAAAUGAGGAAAGACGCUGUUCCGGUUUGGUUUGGUUUCAUUUUAAUUACUCUAGGGAAAACACUGACGAAUGGUCAGCGC` gave a bound/input enrichment of 0.49 ratio.
`AGCAAGAUCAUGUGCAUAUCAUCCCAUUGUAAAGCGACUUCAAAAAUAUGGGAACACAGUCCGUUAUUUUUACACAGUUCUUUUUGUUUUUGUGUGUGUGUGCUGUCGCUUGUCGACAAC` has a bound/input enrichment of 0.124 ratio.
`CUUGACGAUGAUGAAUGUCCUUUACAAAUCUUCAGGGAAUGGCCAAGUGACAAAGGGAUUUCCGUCUUUCAGUUGAAGAGGAGACCACCGGACUACAUCCCAAAGAAAAUGAAGAAACAU` gave a bound/input enrichment of 0.249 ratio.
The bound/input enrichment of `GAUAAAAUGAUUGAUGUAGCUCUUUACAUUGGGAAAGGAGCUUGACAUGCUUAGCUUCCUACCGAAGUCAGGACCGGCUGGUGUGCGGAGUGUUUCAGUUCAGAGCCUAAACUGAAAGGG` is reported as 0.215 ratio.
For `UUCAAAAAGAGAAGAACUGAAAAUGGAAAAUCUAGAAAUUUAAGGCAACGAGGUGAUGAUCAACCGUUGCAGGAGAGCUUUUUGUACAUGCUUUUAGGACAGAAUGGAGACUUAUACACC`, the bound/input enrichment was 1.88 ratio.

Study 2
Target: RNA binding protein fox-1 homolog 2, RRM domain, GST-SBP tag (RBFOX2, Homo sapiens, UniProt O43251-10, residues 100-194)
Method: RNA Bind-n-Seq
Molecule type: RNA
Medium: in vitro
Concentration: 365 nM
Setting: natural RNA segment, single round, ends assumed
Relative to: no-protein control
Reading: higher = stronger binding
Constant ends, left off below: GGGAGUUCUACAGUCCGACGAUC … UGGAAUUCUCGGGUGCCAA
Construct (chain): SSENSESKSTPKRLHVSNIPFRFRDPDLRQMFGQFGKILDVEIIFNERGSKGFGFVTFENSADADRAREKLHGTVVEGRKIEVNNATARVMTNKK
Under “RBNS enrichment (R)”, `ACUGUGAAGUGUUGAGGACAGUGUUGAUGCCUAACUAGUUUUCUUAGAUGGAAACAGAGACAUUGAGCCCUCUCUCUUGAUCGUAAACCACUCCAGAACGGCCACGGGUU` is recorded as 0.221.
`UGUAUUUGCUAUUGUUUUGAAAGUGCUGACAAAGUUUAUAUUUGUAACAUCAGCCUUCCUCGCCCAUCUCUUUCCAUCUGUCUCUUCUUCAUUAAACACUUACUGAGUAU`: “RBNS enrichment (R)” 0.762.
`UUAAUUCUAGAUGUUUUAUCUCUCUGGGAGUAUAGUUUAUAGAAACACAAAGUACUUGAUUUCCUGUGUCGGCUCAGAUACAAGAAACACACACAACUGUUACCCUGACA` — result for “RBNS enrichment (R)”: 0.236.
`AUGUUGCUGAACAUACAUACACCUCCGAAAUGCCAGUUCUGCAUUCUACACAUAUGCUUUCUGGCAGCGAGUUUAUUGCCAGAUUUUAAACAGGGAGUUAUGUGGUGCUU` — result for “RBNS enrichment (R)”: 0.408.
Under “RBNS enrichment (R)”, `CCUAGUUGCAUGUCCAAGGGGGUAGAUUUUCAUCACCCUACUAAAUGUGGUAUGUCACUGCUGAAGCCUUUUCCUGUUUUAGUAAUAUCUUAGGCACUAUUGUCUUUUGU` is recorded as 2.69.
For `AGUUAUACAAGUUUCUGAAUAUUUUAAAUCUUAACAUCAUAUAAAAGGCAGCAGAGGUGAGAACUCAGAAGAGAAAUACAGCUGGCUAUCUACUACCAGAAGGGCUUCAA`, “RBNS enrichment (R)” read 0.421.
`GGCCAGAACCAGCCUCUGCGGGGCUUGUGCUCUGCAAAGACUCUGCUGCUGGGGAUUCAGCUCUAGAGGUCACAGUAUCCUCGUUUGAAAGAUAAUUAAGAUCCCCCGUG`: “RBNS enrichment (R)” 0.291.
`GGGCCUGCUGGAGUUCCGGCCUGGGCACCAGCAUUUGGCAGCACGCAGGCGGGGCAGUAUGUGAUGGACUGGGGAGCACAGGUGUCUGCCUAGAUCCACGUGUGGCCUCC`: “RBNS enrichment (R)” 1.33.
Under “RBNS enrichment (R)”, `GGUUUACUGAAAUAGCCAAUUUGACUGGUGCUUAGACUAUUGUGCAGUAAACCUAAAAGGUAGUGGAGAAUUGCUUCCUGCUAGCAGGAAGCCUUCAUCUUCUUGAGUAC` is recorded as 0.166.
`UCAAAACUUAGUGACUGUGGGUCACAUUCCCACUGUUGAAACUGCUAAAUUGUGACCUGGGGAAGGACUUUGCUUUAGUCGGUGAUGUUCGUACUUGGUGACAAAUUGAG`: “RBNS enrichment (R)” 0.525.
Under “RBNS enrichment (R)”, `UUGAGCAGAGACAAACCUUUAUUCAUAGUGUCUACAGGACAUAUGAAGAGUGCAAUGGCAAAACAAGAGCAAAAAGCACUUCCUCCCAUGACCUUACAGUAACCAUACUG` is recorded as 0.31.
For `CAAAUGAAAAGCAAUUUUUGAGACUGAAUCUGUUGCUAUUUUAAAGGUUAUUGUGGGAAACUGAGCUAAAGGAGUUAGCAUCUUUAUUUUUGUAUCAAAAAUAAAGGUUA`, “RBNS enrichment (R)” read 0.852.

Study 3
Target: Histone acetyltransferase KAT6A, both winged helices, GST fusion (KAT6A, Homo sapiens, UniProt Q92794, residues 1-181)
Method: protein binding microarray
Molecule type: double-stranded DNA, one strand shown
Medium: in vitro
Concentration: not given
Setting: 8-mer, flanks averaged, mean of 2 arrays, mostly near background
Relative to: not given
Reading: higher = stronger binding
Residues (chain): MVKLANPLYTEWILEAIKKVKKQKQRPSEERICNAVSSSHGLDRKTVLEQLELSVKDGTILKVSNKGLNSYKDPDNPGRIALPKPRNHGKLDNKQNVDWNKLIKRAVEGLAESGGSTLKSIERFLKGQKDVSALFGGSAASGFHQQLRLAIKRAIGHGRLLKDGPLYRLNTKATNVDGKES
For `ACACACTC`, the E-score was -0.168.
`ACGCCTTA` has an E-score of 0.145.
`ACTAAGCG` gave an E-score of 0.144.
The E-score of `ATTAGGGG` is reported as -0.217.
`CGAACAAA` has an E-score of 0.153.
`CCTAGAAG` has an E-score of -0.023.
The E-score of `GAACGAAC` is reported as 0.098.
`ACAAATCT` has an E-score of -0.101.
`GGTTAATA` gave an E-score of -0.0805.
For `AGTACAAG`, the E-score was -0.181.
The E-score of `CACAGGTA` is reported as -0.0587.
`ATGATGAA` has an E-score of -0.13.
`GCGGCAAC` gave an E-score of 0.246.
`ATACATCG` has an E-score of 0.000935.
`AGTTACCA` has an E-score of -0.0118.
`ATGATGTA` has an E-score of -0.0139.
For `GCTCCAGC`, the E-score was 0.06.
`ATCAGGAG` gave an E-score of -0.193.
The E-score of `AAATATGG` is reported as -0.113.
For `ACTAGGGA`, the E-score was -0.0592.
For `CGTATCTC`, the E-score was 0.118.
With `CGGCAAGC` the E-score was 0.257.

Study 4
Target: Ras GTPase-activating protein-binding protein 1, C-terminal RGG region (G3BP1, Homo sapiens, UniProt Q13283)
Chain of UniProt Q13283 (whole entry, looked up): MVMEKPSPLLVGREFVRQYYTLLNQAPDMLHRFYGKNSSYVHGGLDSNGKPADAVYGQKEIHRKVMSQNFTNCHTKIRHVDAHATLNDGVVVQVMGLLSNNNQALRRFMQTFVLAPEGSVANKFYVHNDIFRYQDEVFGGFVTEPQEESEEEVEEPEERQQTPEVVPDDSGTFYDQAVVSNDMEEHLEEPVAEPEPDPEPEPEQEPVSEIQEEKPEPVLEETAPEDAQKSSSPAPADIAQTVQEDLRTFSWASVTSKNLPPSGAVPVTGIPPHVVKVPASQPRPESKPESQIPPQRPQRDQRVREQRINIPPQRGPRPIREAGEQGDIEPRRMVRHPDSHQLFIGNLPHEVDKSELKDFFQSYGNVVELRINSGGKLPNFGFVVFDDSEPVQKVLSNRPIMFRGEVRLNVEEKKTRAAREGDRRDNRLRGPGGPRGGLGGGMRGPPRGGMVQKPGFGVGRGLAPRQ
Method: RNA Bind-n-Seq
Molecule type: RNA
Medium: in vitro
Concentration: 1 µM
Setting: whole 134-nt RNA, ends assumed
With: 150 mM KCl
Relative to: input library
Reading: higher = stronger binding
Constant ends, left off below: GGGAGUUCUACAGUCCGACGAUC … UGGAAUUCUCGGGUGUCAAGG
For `CACAGACAACACGAACCCACACAGACACAGAGGGAAGGGGUUGGGAUGGGGACAGGGUGCACAGCAGGGCGGGGUAGGACCCCAGCCCCU`, the log2 enrichment was 0.361.
With `AAGUCCUGUGCUACACAUCGUAUGUACCGAAUCAAAUUUAAAUUUAAACCCCCAAAAAAGUAUUAUGUUACGCCGUUCGGAUCUGCACUU` the log2 enrichment was -0.926.
`UGCAGCUGCUGGCCGCCUCCUAUGACCUGCACCGCUACUUCUACACGGGUGCCGAGAUCCUGGGCCUCAUCGACGAGAAGCACCGCGAGC` gave a log2 enrichment of -0.349.
`UUGAUGCCCCAGAUGUGGAUGUUCAUGGCCCAGACUGGCACCUGAAGAUGCCUAAGAUGAAAAUGCCCAAGUUCAGCAUGCCUGGCUUCA` has a log2 enrichment of -0.436.
With `ACCAUGCAGGUGGGCAUCUUUGGGAAGUGGGGCGAGGGGGGGAUAGGGAGGGGGGUAACACUUUGGGAACAGGUGGUCCCAGGUCGUUUC` the log2 enrichment was -0.936.
For `UCCUGUGCUACACAUCGUAUGUACCGAAUCGGGGAAAAAGGGGAAAGGGGUUUUUGGGGAAAGUAUUAUGUUACGCCGUUCGGAUCUGCA`, the log2 enrichment was 2.36.
For `GCAGGAAGUAAAAACAAAUGGAAAUGCUUCGGAUAAAGGCAGGGGUGGGGGUUGCUAAGGAAAGGGUGGGAUGGGAGUGGGUAAAGAGUU`, the log2 enrichment was 1.95.
The log2 enrichment of `GUCCUGUGCUACACAUCGUAUGUACCGAAUCGGGGAGGGGAAAGGGGUUUUUUUGGGGAAAGUAUUAUGUUACGCCGUUCGGAUCUGCAC` is reported as 2.45.
For `UCCUGUGCUACACAUCGUAUGUACCGAAUCGGGAAAAAAGGAAAAAAGGGGAAAAAAGGAAAGUAUUAUGUUACGCCGUUCGGAUCUGCA`, the log2 enrichment was -1.56.
`AAGUCCUGUGCUACACAUCGUAUGUACCGAAUCGGCCCCCGGCCCCCGGGCCCCCGGAAAGUAUUAUGUUACGCCGUUCGGAUCUGCACU` gave a log2 enrichment of -1.28.
The log2 enrichment of `AGUCCUGUGCUACACAUCGUAUGUACCGAAUCGGGGAGGGGAAAAAAAGGGGAGGGGAAAGUAUUAUGUUACGCCGUUCGGAUCUGCACU` is reported as 2.39.
`ACCAUGCAGGUGGGCAUCUUUGGGGAGUGGGGCAAGGGGGGGAUAGGGAGGGGGGUAACACUUUGGGAACAGGUGGUCCCAGGUCGUUUC` gave a log2 enrichment of -1.09.
For `UUGUCUACAGAACUAGACAGUACGGAUGGUGCCAAAGUUUUUAGUAAACAACCAGGAAGAAUCCAAAGAGUAGCAAGAGGAUCGGGUGUA`, the log2 enrichment was -2.07.
The log2 enrichment of `AGGCUAUGGAGGCUAUGAUGAUUACAAUGGCUAUAAUGAUGGCUAUGGAUUUGGGUCAGAUAGAUUUGGAAGAGGUAAGGUAAGAAUUGA` is reported as -0.675.

Some of these lines once more (study 3):
The E-score of `CACAGGTA` is reported as -0.0587.
`ATGATGAA` has an E-score of -0.13.
`GCGGCAAC` gave an E-score of 0.246.
`ATACATCG` has an E-score of 0.000935.
`AGTTACCA` has an E-score of -0.0118.
`ATGATGTA` has an E-score of -0.0139.
